Published values of several laboratories.
Numbered parts are unrelated; each lists some results of a single study. Substitutions count along the parent as printed.

Block 1 — target: CCNE1, cyclin fold, Cln2 fusion (human); technique: yeast growth competition, sequencing; sample: yeast; setting: weak parent motif; reference: not given; reading: higher = stronger binding
Starting sequence: CDC42EP1 docking peptide (human); SLVVGKLSFDSSP
Change	normalised enrichment score
P13A	0.0136
S8A	0.156
L2A	0.502
D10A	0.296
L7A	-0.11
V4A	0.177

Block 2 — technique: DHFR PCA, deep sequencing; sample: yeast; with: (+)-ABA 1.4 µM; reference: wild-type fitted maximum; reading: higher = stronger binding
Target: ABI1, truncated, D143A, DHFR fusion (Arabidopsis thaliana)
Setting: methotrexate growth selection, single substitutions
Starting sequence: PYL1, truncated, DHFR fusion (Arabidopsis thaliana); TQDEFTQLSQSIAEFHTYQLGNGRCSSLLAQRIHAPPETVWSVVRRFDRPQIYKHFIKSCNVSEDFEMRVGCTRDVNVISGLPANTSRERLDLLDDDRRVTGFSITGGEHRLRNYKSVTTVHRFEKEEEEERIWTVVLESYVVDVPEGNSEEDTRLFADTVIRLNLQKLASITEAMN
Change	relative binding score
P36Y	13.5%
N85V	67.7%
T73R	19.4%
G148Y	-12%
S26H	35.6%

Block 3 — technique: RNA Bind-n-Seq; molecule type: RNA; sample: in vitro; tested at: 200 nM; setting: whole 134-nt RNA, ends assumed; with: 150 mM LiCl; reference: input library; reading: higher = stronger binding; each molecule: 7-deaza-guanosine replaces G
Target: Ras GTPase-activating protein-binding protein 1, full length (G3BP1, Homo sapiens, UniProt Q13283)
Chain of UniProt Q13283 (whole entry, looked up): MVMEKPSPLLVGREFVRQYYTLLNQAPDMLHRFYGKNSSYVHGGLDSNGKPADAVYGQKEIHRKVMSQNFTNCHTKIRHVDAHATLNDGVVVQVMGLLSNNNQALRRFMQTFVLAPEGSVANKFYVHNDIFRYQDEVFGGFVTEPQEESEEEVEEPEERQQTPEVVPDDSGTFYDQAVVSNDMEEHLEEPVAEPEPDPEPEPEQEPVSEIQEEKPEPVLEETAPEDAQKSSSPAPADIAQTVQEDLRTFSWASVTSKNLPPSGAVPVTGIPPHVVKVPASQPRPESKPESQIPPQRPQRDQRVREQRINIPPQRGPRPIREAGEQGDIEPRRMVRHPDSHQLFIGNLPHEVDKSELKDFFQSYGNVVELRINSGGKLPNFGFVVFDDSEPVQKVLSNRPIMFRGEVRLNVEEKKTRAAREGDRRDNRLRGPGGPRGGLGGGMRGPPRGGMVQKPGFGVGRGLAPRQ
Strand	log2 enrichment
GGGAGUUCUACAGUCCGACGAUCCCUGUGCUACACAUCGUAUGUACCGAAUCGGAAAAAAAGGGGAAAAAAAGGAAAAAAAGGAAAGUAUUAUGUUACGCCGUUCGGAUCUGCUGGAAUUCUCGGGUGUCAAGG	-0.41
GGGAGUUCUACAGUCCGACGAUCGUCCUGUGCUACACAUCGUAUGUACCGAAUCGGGAAAAAAGGAAAAAAGGGAAAAAAGGAAAGUAUUAUGUUACGCCGUUCGGAUCUGCAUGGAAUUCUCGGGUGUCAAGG	-0.287
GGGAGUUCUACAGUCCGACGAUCUCAAGUCCUGUGCUACACAUCGUAUGUACCGAAUCGGCCCGGCCCGGGGCCCGGAAAGUAUUAUGUUACGCCGUUCGGAUCUGCACUUCCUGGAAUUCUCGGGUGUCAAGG	-0.538
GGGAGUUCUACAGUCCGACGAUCGCAGGAUGUAAAAACAAAUGGAAAUGCUUCGGAUAGUGGCAGGGGUGGGGGUUGCUAAGGAAAGGGUGGGAUGGGAGUGGGUAAAGAGUUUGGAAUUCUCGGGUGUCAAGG	0.0294
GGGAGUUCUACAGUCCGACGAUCACCCUGCAGGUGGGCAUCUUUGGGAAGUGGGGCAAGGGGGGGAUAGGGAGGGGGGUAACACUUUGGGAACAGGUGGUCCCAGGUCGUUUCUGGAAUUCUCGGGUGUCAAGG	0.203
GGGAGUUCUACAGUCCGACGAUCUGGGAGGUGGAUUUUGUUUAUUUUUUUAGCUCAUUUCUAGGGGUGGGAAUUUUUUUUUAAUAUGUGUCAUGAAUAAAGUUGUUUUUGAAAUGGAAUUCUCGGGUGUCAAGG	0.377
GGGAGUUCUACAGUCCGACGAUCUCCUGUGCUACACAUCGUAUGUACCGAAUCGGGGUUUUUUUGGGGAGGGGUUUUUGGGGAAAGUAUUAUGUUACGCCGUUCGGAUCUGCAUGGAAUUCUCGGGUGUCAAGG	0.757
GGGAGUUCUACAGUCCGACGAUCAGUCCUGUGCUACACAUCGUAUGUACCGAAUCAAAUUUUUUUAAACCCAAAUUUAAAAAAGUAUUAUGUUACGCCGUUCGGAUCUGCACUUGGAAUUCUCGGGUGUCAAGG	-2.48

Mixed results
Substance	target	test	test system	conditions	how to read	measurement	value
PhoQ, residues 284 288 289 292 302 303 AEGLLW	PhoP, residues 12 14 15 18 19 AGCRL (Escherichia coli, UniProt P23836)	Sort-seq, item: YFP reporter	E. coli	PhoQ-PhoP variant library, with: 10 µM Mg2+	reference: high Mg2+ state, higher = stronger signaling	fold induction	9.13

Some of these lines once more (block 1):
Change	normalised enrichment score
P13A	0.0136
S8A	0.156
L2A	0.502
